{"data": "Measurements pooled from the literature", "note": "Each numbered part is a random draw from the data of one study; scales do not carry over between parts."}
{"data": "Series 1", "target": "Interferon regulatory factor 7, full length, phosphomimetic (IRF7, Homo sapiens, UniProt Q92985, residues 1-503, S101K/S471D/S472D/S475D/S476D/S477D/S483D/S484D/S487D)", "method": "protein-binding microarray", "molecule type": "double-stranded DNA, one strand shown", "sample": "in vitro", "tested at": "250 nM", "setting": "60-bp whole probe", "with": "salmon DNA 0.4 mg/ml", "relative to": "random background probes", "direction": "higher = stronger binding", "Construct (chain)": "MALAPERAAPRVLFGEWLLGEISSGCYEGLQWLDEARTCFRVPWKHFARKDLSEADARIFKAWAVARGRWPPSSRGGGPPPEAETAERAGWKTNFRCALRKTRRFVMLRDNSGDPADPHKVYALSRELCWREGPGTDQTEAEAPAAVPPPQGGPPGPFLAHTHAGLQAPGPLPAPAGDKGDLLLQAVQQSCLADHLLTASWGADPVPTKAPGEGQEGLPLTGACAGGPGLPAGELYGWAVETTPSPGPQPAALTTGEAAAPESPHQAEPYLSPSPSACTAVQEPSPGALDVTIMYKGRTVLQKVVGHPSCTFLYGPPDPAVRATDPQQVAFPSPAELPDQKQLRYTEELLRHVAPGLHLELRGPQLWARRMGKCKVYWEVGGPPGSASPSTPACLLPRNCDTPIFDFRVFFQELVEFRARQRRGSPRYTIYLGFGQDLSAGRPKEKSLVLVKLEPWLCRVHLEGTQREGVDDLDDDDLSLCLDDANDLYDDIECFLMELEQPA"}
{"Sequence": "GCCTAGCACTTAGATATCAGTCTCGGTTAGTGCTAGGTCTTGATTCGCTTGACGCTGCTG", "log fluorescence": "1.68 z-score"}
{"Sequence": "GCCTAGCACTCATTTTTTTTTTCCCTACTGTGCTAGGTCTTGATTCGCTTGACGCTGCTG", "log fluorescence": "1.42 z-score"}
{"Sequence": "GCCTAGCACGACGGTATCCTACTTCTGACGTGCTAGGTCTTGATTCGCTTGACGCTGCTG", "log fluorescence": "-0.136 z-score"}
{"data": "Series 2", "target": "Sal-like protein 4, full length isoform A (SALL4, Homo sapiens, UniProt Q9UJQ4, residues 1-1053)", "method": "universal PBM", "molecule type": "double-stranded DNA, one strand shown", "sample": "in vitro", "tested at": "600 nM", "setting": "8-mer, flanks averaged, mean of replicates", "direction": "higher = stronger binding", "chain of UniProt Q9UJQ4 (whole entry, looked up)": "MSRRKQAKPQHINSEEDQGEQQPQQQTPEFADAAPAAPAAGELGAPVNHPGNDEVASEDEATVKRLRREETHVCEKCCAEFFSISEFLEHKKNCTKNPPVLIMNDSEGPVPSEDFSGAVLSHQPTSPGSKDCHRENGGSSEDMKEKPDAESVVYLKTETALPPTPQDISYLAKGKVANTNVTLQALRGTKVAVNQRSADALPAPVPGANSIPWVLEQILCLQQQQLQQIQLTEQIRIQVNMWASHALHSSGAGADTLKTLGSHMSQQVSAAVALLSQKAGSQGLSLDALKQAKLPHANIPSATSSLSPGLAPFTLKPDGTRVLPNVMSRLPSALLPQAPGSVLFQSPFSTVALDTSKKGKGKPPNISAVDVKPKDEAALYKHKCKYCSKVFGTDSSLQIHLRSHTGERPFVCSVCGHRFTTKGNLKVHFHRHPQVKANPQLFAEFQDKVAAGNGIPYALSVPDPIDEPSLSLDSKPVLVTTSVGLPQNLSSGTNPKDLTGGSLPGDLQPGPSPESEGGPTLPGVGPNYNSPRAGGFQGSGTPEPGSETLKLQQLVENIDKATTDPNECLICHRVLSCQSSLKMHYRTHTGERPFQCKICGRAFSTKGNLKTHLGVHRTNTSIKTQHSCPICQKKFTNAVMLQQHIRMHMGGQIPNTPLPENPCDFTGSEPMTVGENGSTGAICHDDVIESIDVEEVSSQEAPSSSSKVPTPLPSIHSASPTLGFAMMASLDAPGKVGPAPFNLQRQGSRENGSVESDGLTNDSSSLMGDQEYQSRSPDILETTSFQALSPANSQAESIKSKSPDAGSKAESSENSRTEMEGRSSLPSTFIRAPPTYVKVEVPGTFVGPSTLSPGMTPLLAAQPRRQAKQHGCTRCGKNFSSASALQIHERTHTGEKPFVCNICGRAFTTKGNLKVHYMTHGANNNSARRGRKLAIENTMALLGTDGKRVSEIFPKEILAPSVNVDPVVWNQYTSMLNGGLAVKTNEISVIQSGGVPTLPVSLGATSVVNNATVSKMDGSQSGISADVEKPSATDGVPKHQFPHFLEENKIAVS"}
{"Sequence": "CCACTCAC", "E-score": -0.0789}
{"Sequence": "AGCCCGTG", "E-score": -0.339}
{"Sequence": "ATAGTCAG", "E-score": 0.134}
{"data": "Other studies, line by line"}
{"Substance": "GAAGTGAC", "target": "Histone acetyltransferase KAT6A, winged helix 2, GST fusion (KAT6A, Homo sapiens, UniProt Q92794, residues 85-181)", "test": "protein binding microarray", "system": "double-stranded DNA, one strand shown, in vitro", "setting": "not given, 8-mer, flanks averaged, mean of 2 arrays, mostly near background", "scale": "relative to: not given, higher = stronger binding", "quantity": "E-score", "value": 0.0217}
{"Substance": "PhoQ, residues 284 288 289 292 302 303 DDMDFR", "target": "PhoP, residues 12 14 15 18 19 LWHVM (Escherichia coli, UniProt P23836)", "test": "Sort-seq, item: YFP reporter", "system": "E. coli", "setting": "PhoQ-PhoP variant library, with: 10 µM Mg2+", "scale": "relative to: high Mg2+ state, higher = stronger signaling", "quantity": "fold induction", "value": 0.807}
{"note": "A few entries again (series 2):"}
{"Sequence": "ATAGTCAG", "E-score": 0.134}
